Assay results pooled from the literature.
Compare with care: the assays were run in different laboratories. Several values in a cell are separate wells, animals, samples, runs or records. ± gives the spread as reported.

CN(O)C(=O)CCC(=O)NCCCN(CCCCN(CCCNC(=O)CCC(=O)N(C)O)C(=O)CCC(=O)N(C)O)C(=O)CCC(=O)N(C)O.[89Zr] has an intact complex of 98.9 ± 1% (radio-TLC; aqueous buffer; 7 d, pH 7.2, 37 °C, 89Zr-labelled complex, together with: CaCl2 10-fold excess).
The mean SUV of O=C(Nc1cnccc1-c1ccc([18F])nc1)c1ccnc(NC(=O)C2CC2)c1 is reported as 0.372 (ex vivo gamma counting; GSK-3β transgenic mice, early-stage, left kidney; intravenous, 120 min, together with: tariquidar 15 mg/kg iv).
With CC(C)(C)C(=O)Nc1ccc2[nH]c(CN3CCC(N(CCCN4CCOCC4)CC4OC(n5cnc6c(N)ncnc65)C(O)C4O)CC3)nc2c1 (centres unmarked) the concentration was 7 ng/mL (male Sprague-Dawley rat, plasma; intravenous, 20 mg/kg, 6 h).
For COc1cccc(OC)c1-c1cc(C(=O)NC2(C(=O)O)C3CC4CC(C3)CC2C4)nn1-c1ccc(C(=O)N(C)CCOCCN(C)C(=O)[C@H](CCCCNC(=O)[C@H](CC(C)C)NC(=O)C2OC2C(=O)O)NC(=O)CN2CCN(CC(=O)[O-])CCN(CC(=O)[O-])CCN(CC(=O)[O-])CC2)cc1C(C)C.[177Lu+3] (mixture of isomers), the tumour-to-stomach ratio was 15 (mouse HT-29 xenograft; 24 h, biodistribution; baseline: tumour over stomach).
CCCCCCCC(=O)OC[C@H](NC(=O)[C@H](CO)NC(=O)CN)C(=O)N[C@@H](Cc1ccccc1)C(=O)N[C@@H](CC(C)C)C(=O)N[C@@H](CO)C(=O)N1CCC[C@H]1C(=O)N[C@@H](CCC(=O)O)C(=O)N[C@@H](Cc1cnc[nH]1)C(=O)N[C@@H](CCC(N)=O)C(=O)N[C@@H](CCCNC(=N)N)C(=O)N[C@H](C(=O)N[C@@H](CCC(N)=O)C(=O)N[C@@H](CCC(N)=O)C(=O)N[C@@H](CCCNC(=N)N)C(=O)N[C@@H](CCCCN)C(=O)N[C@@H](CCC(=O)O)C(=O)N[C@@H](CO)C(=O)N[C@@H](CCCCN)C(=O)N[C@@H](CCCCN)C(=O)N1CCC[C@H]1C(=O)N1CCC[C@H]1C(=O)N[C@@H](C)C(=O)N[C@@H](CCCCN)C(=O)N[C@@H](CC(C)C)C(=O)N[C@@H](CCC(N)=O)C(=O)N1CCC[C@H]1C(=O)N[C@@H](CCCNC(=N)N)C(=O)O)C(C)C has a blood pressure of 105 mm Hg (manual cuff, item: sBP; human, chronic HFrEF patients; intravenous infusion, 0.1 µg/kg/min over 120 min, follow-up day 2-5, median).
Cc1nc2cccc(OCC(C)(C)C(=O)NC(C)C)c2c(N)c1C(=O)[O-].[Na+] has a Tmax of 18.6 min (male Sprague-Dawley rat, plasma; oral, 30 mg/kg).
For N#Cc1cc(NC(=O)C2c3ccccc3C(=O)N(CC(F)(F)F)C2c2ccc[n+]([O-])c2)ccc1F (centres unmarked), “apparent oral clearance increase” read 1.3 (human; 900 mg, unit not given; baseline: other 6 cohorts).
Under “weighted blood half-life”, C[N+](C)(CCOCCOCCOCCOCCOCCOCCOCCNC(=S)Nc1ccc(CC2CN(CC(=O)[O-])CCN(CC(=O)[O-])CCN2CC(=O)[O-])cc1)C[c-]1cccc1.[64Cu+2].[Fe+2].c1cc[cH-]c1 (centres unmarked) is recorded as 6.7 min (healthy nude mice, blood; intravenous, dose not given).
For CC(C)[C@H](NC(=O)[C@H](Cc1c[nH]c2ccccc12)NC(=O)[C@H](CCCNC(=N)N)NC(=O)[C@H](CCCNC(=N)N)NC(=O)[C@@H](NC(=O)[C@@H](NC(=O)[C@H](CCCNC(=N)N)NC(=O)[C@@H](NC(=O)[C@@H](NC(=O)[C@H](CCCNC(=N)N)NC(=O)[C@H](CCCNC(=N)N)NC(=O)[C@@H](NC(=O)[C@H](Cc1c[nH]c2ccccc12)NC(=O)[C@H](CCCNC(=N)N)NC(=O)[C@H](CCCNC(=N)N)NC(=O)[C@@H](NC(=O)[C@H](CCCNC(=N)N)NC(=O)[C@H](CCCNC(=N)N)NC(=O)[C@@H](NC(=O)[C@H](Cc1c[nH]c2ccccc12)NC(=O)[C@H](CCCNC(=N)N)NC(=O)[C@@H](N)CCCNC(=N)N)C(C)C)C(C)C)C(C)C)C(C)C)C(C)C)C(C)C)C(C)C)C(=O)N[C@@H](CCCNC(=N)N)C(=O)N[C@@H](CCCNC(=N)N)C(=O)O, the sodium excretion was less than 6.4 µmol/day/g body weight (CD1 mouse, urine; intravenous, 15 mg/kg, 6 h, [14C]-labelled compound).
C=CC(=O)N1CCC[C@@H](c2ccc(C(N)=O)c3[nH]ccc23)C1 gave a trough concentration of 0.391 ng/mL (mouse, TMD8 tumour-bearing, plasma; 15 mg/kg twice daily, 12 h).
For CC(C)Cc1ccc(C(C)C(=O)N[C@@H](CCCCNC(=O)CCOCCOCCOCCOCCOCCOCCNC(=O)CN2CCN(CC(=O)[O-])CCN(CC(=O)[O-])CCN(CC(=O)[O-])CC2)C(=O)Nc2cccc3c(C(=O)NCC(=O)N4CC(F)(F)C[C@H]4C#N)ccnc23)cc1.[177Lu+3] (some centres unmarked), the radiochemical stability was 99.21 ± 0.2% (PBS; 4 h, 37 °C, 177Lu-labelled).
Cc1cc(C(=O)NC(C)(C)CO)cc(C)n1 — result for “plasma peak area”: 189000 a.u. (LC-MS metabolite profiling; Sprague-Dawley rat, both sexes, plasma; oral, 100 mg/kg of parent drug, 0.25 (unit not given); higher = more metabolite).
C=CC(=O)Nc1cc(Nc2nccc(-c3c[nH]c4ccccc34)n2)c(OC)cc1N(C)CCN(C)C has a recovery of 99.2% (storage stability; human dried blood spots; 5 h, -80 °C, low QC level).
Under “volume of distribution”, C=C(NC(=O)c1csc(-c2nc3c(cc2O)-c2nc(cs2)C(=O)NC(C(C)O)C(=O)NC(=C(C)OC)c2nc(cs2)C(=O)NC2c4nc(cs4)C(=O)NC(COC(=O)c4c5c6c(cccc6n4O)COC(=O)C(OC4CC(C)(O)C(N(C)C)C(C)O4)C2OC5)c2nc-3cs2)n1)C(N)=O (centres unmarked) is recorded as 1.15 L/kg (cynomolgus monkey, male, plasma; intravenous infusion, 3 mg/kg single dose).
With CCOc1ccc(Nc2ncnc3[nH]c(/C=C/c4ccc(OC)c(OC)c4)nc23)cc1 the purity was 99.3% (HPLC; solution; after 1 h light exposure).
With N#C[C@@H]1CC(F)(F)CN1C(=O)CNC(=O)c1ccnc2c(NC(=O)[C@H](CCCCNC(=O)CCOCCOCCOCCOCCOCCOCCNC(=O)CN3CCN(CC(=O)[O-])CCN(CC(=O)[O-])CCN(CC(=O)[O-])CC3)NC(=O)CCCc3ccc(I)cc3)cccc12.[177Lu+3] the radiochemical stability was 95.2 ± 1.4% (human serum; 4 h, 37 °C, 177Lu-labelled).
O=C(NS(=O)(=O)c1cccs1)c1cc2ccccc2n1Cc1ccc(Br)c2ccccc12 has a body weight of 35.6 g and 34.6 g and 36.4 g and 38 g and 32.8 g and 37.6 g (KM mouse, chronic hyperuricaemia model; dose not given, day 20).
With CC(C(=O)O)n1nc(Cn2cc3cc(OCC[18F])c(Cl)cc3n2)c2ccccc2c1=O (racemic) the tracer uptake was 0.04 %ID/g (rat, muscle; 2 h).
The absorbed dose of O=C(O)CCCOc1ccc([18F])cc1-c1cc(-c2ccccc2C(F)(F)F)n(-c2ccccc2)n1 is reported as 12.7 µGy/MBq (OLINDA/EXM from mouse data, item: stomach wall; human adult).
[11CH3]N1CCC(NC(=O)c2cc(-c3c(O)cc(O)cc3Oc3ccc([N+](=O)[O-])cc3)on2)CC1: “standardized uptake value” 0.8 ± 0.2 g/mL (healthy female Wistar rats, blood; intravenous, 30 min).
CCCCN1C(=O)c2cccc3c(NCCCCCCCCN4CCOCC4)ccc(c23)C1=O — result for “fluorescence quantum yield”: 0.77 (ethylene glycol).
The parent fraction of O=C1c2sc(-c3ccc(N4CCC(F)C4)nc3F)nc2CCN1c1cccnc1 (centres unmarked) is reported as 0.916 (HPLC; rhesus monkey, plasma; intravenous, 6 min).
The uric acid of CN1CCCNC(=O)c2cccc(c2)C(=O)NCCCN(C)CCCNc2cccc3c2C(=O)c2cccc(c2C3=O)NCCC1 is reported as 2.37 mg/dL (mice, serum; dose not given).
O=C1c2sc(-c3ccc(N4CCC(CO)CC4)nc3F)nc2CCN1c1cccnc1 has a concentration of 1.55 ng/mL and 1.25 ng/mL and 1.38 ng/mL (CD1 mouse, plasma; i.v., dose not given, 1 h).
O=C(Nc1cnccc1-c1ccc([18F])cc1)c1ccnc(NC(=O)C2CC2)c1 gave an SUV of 6.64 (ex vivo gamma counting; GSK-3β transgenic mice, early-stage, feces; intravenous, 120 min, mean, P-gp inhibitor pretreatment, together with: tariquidar 15 mg/kg iv).
For N#C[C@@H]1CC(F)(F)CN1C(=O)CNC(=O)c1ccnc2c(NC(=O)C(N)CCCCNC(=O)CCOCCOCCOCCOCCOCCOCCNC(=O)CN3CCN(CC(=O)[O-])CCN(CC(=O)[O-])CCN(CC(=O)[O-])CC3)cccc12.[68Ga+3] (some centres unmarked), the radiochemical stability was 99.14 ± 0.3% (human serum; 120 min, 37 °C, 68Ga-labelled).
CCCCN1C(=O)c2cccc3c(NCCCCCCN4CCOCC4)ccc(c23)C1=O gave a Stokes shift of 84 nm (ethyl acetate).
Cc1nc(N)nc2c1C(=O)N[C@@H](c1ccc(F)cc1-c1cccc(O[11CH3])n1)C2 gave a tracer uptake of 2.6 ± 1 %ID (ex vivo biodistribution; mice, U87 subcutaneous xenograft, spleen; 60 min post-injection, baseline, vehicle pre-treatment).
O=C(NCC1OC2CCC=CCCC2O1)c1ccc([18F])nc1 (centres unmarked) gave a tissue uptake of 4.1 ± 1.3 %ID/g (healthy female BALB/c nude mice, stomach; intravenous, 7.4 MBq per mouse, 5 min).
C/C(N)=N/C(=N\S(=O)(=O)c1ccc(C(F)(F)F)cc1)N1C[C@H](c2ccccc2)C(c2ccc(Cl)cc2)=N1 gave a Tmax of 30 min (male C57BL/6 mouse, plasma; intravenous, 5 mg/kg).
The plasma concentration of COc1ccc(C(N)=O)cn1 is reported as 60.9 µM (Han Wistar rats, male, plasma; oral, 30 mg/kg, 1.50 h).
C=CC(=O)Nc1cc(Nc2nccc(-c3cn(C)c4ccccc34)n2)c(OC)cc1N(C)CCNC has a remaining compound of 103% (human, dried blood spots; 270 ng/mL, 2 h, on ice, high QC level).
With COc1cccc(OC)c1-c1cc(C(=O)NC2(C(=O)O)C3CC4CC(C3)CC2C4)nn1-c1ccc(C(=O)N(C)CCOCCOCCN(C)C(=O)[C@H](CCCCNC(=O)[C@H](CC(C)C)NC(=O)C2OC2C(=O)O)NC(=O)CN2CCN(CC(=O)[O-])CCN(CC(=O)[O-])CCN(CC(=O)[O-])CC2)cc1C(C)C.[177Lu+3] (mixture of isomers) the tumour-to-stomach ratio was 58.5 (mouse HT-29 xenograft; 72 h, biodistribution; baseline: tumour over stomach).
COCC1CN(C2CCN(c3cc(OC)c(Nc4ncc(Br)c(Nc5ccc6c(c5P(C)(C)=O)OCCO6)n4)cc3C)CC2)C1 gave an adverse events of 83.3% (first-in-human trial; human; oral, 150 mg once daily; any treatment-related).
With CC(C)C[C@@H](NC(=O)[C@H](NC(=O)[C@H]1CCCN1)[C@H](C)O)C(=O)N[C@H](Cc1c[nH]cn1)C(=O)N[C@@H](C(=O)N[C@H](Cc1c[nH]cn1)C(=O)N[C@H](CC(N)=O)C(=O)N[C@H](CCCNC(=N)N)C(=O)N[C@H](CCCNC(=N)N)C(=O)N[C@H](CCCNC(=N)N)C(=O)N[C@H](CCCNC(=N)N)C(=O)N[C@H](CCCNC(=N)N)C(N)=O)[C@H](C)O the glucose was 5.2 mmol/L (Beagle dog, blood; oral, 3 mg/kg daily, 3 months).
The remaining compound of CN(Cc1cc(C2CC2)on1)C(=O)c1cccc(-c2ccc(F)cc2)c1 is reported as 100% (male ICR/CD-1 mouse, liver microsomes; 2 µM, 0 min, pH 7.5, together with: 1-aminobenzotriazole 500 µM, preincubated 30 min).
OCC1OC(n2cnc3c(NCc4ccc(Br)s4)ncnc32)C(O)C1O (centres unmarked) has a fraction unbound of 0.142 (equilibrium dialysis; human plasma; 0.5 µg/mL, 4 h, pH 7.4).
CCCC[C@H](OC(C)=O)c1ccccc1C(=O)O has a clearance of 12.2 ± 2.13 mL/min/kg (Sprague-Dawley rats, both sexes, whole blood; intravenous, 5 mg/kg single dose).
The fluorescence lifetime of CCCCN1C(=O)c2cccc3c(NCCCN4CCOCC4)ccc(c23)C1=O is reported as 8.7 ns (chloroform).
CC(C)(O)c1ncc([S@](N)(=O)=NC(=O)Nc2c3c(cc4c2CCC4)CCC3)s1: “subjects with TEAEs” 33% (item: skin, subcutaneous tissue disorders; healthy human; oral, 100 mg, all formulations pooled).
Under “fluorescence quantum yield”, CCCCN1C(=O)c2cccc3c(NCCCCCCCCCCN4CCOCC4)ccc(c23)C1=O is recorded as 0.99 (dichloromethane).
With CCCCCC(=O)[O][Pt]([Cl])([Cl])[O]C(=O)CCCCC.N.N the clearance was 1.87e-06 mg/(ng/mL)/h (ICP-MS, item: platinum; nude mice, blood; intravenous, equimolar single dose).
The fluorescence lifetime of CCCCN1C(=O)c2cccc3c(NCCCCCN4CCOCC4)ccc(c23)C1=O is reported as 10.2 ns (acetonitrile).
For CC1(C)CC[C@@]2(CO)C(=C3C=C[C@@H]4[C@@]5(C)CC[C@H](O)[C@@](C)(CO)[C@@H]5CC[C@@]4(C)[C@]3(C)C[C@@H]2O)C1, the plasma concentration was 64.6 ng/mL (UHPLC-MS/MS; mouse, plasma; oral, 50 mg/kg of saikosaponin a, 8 h).
